Published values from different studies.
A part holds a random share of what one study measured.

Sample 1
Target: Interferon regulatory factor 5, full length, phosphomimetic (IRF5, Homo sapiens, UniProt Q13568-2, residues 1-514, S451D/S453D/S456D/S462D)
Technique: protein-binding microarray
Form: double-stranded DNA, one strand shown
Sample: in vitro
Tested at: 940 nM top
Setting: 60-bp whole probe
Together with: salmon DNA 0.4 mg/ml
Baseline: random background probes
Reading: higher = stronger binding
Constant ends, left off below: GCCTAGCAC … GTCTTGATTCGCTTGACGCTGCTG
Strand | fitted relative affinity [z-score]
GACGATCTCAGAGTGGAGACGTGCTAG | -0.588
CACGTTGCTCAAGGGCTTGAGTGCTAG | -0.629
CTCCTTCTCTAACCTCTCTAAGTGCTA | 1.27
TCATCTTTCGTTACTTCACTGTGCTAG | 2.93
TTAGAACTAGGGTTTCGATTAGTGCTA | 3.43
ACATATTTGTTTCCATTTTCGTGCTAG | 1.72
GACGGTATCCTATTGCTGACGTGCTAG | 0.255
GACGGTTTCTGTTCCGGGACGTGCTAG | 6.06
GAAGGTATCCTTTTCCTGACGTGCTAG | 0.251
TTAGGCATCGACTTTCGGTTAGTGCTA | 2.34
TTAGGTTTCCTTTCCCTTTAGTGCTAG | 2.39
TATTACCTCATCTTTCCCTGCGTGCTA | 1.07
TTAGGACTGCTTTACCTTTAGTGCTAG | -0.0476
GACGGTCTGGGTATCGGGACGTGCTAG | 0.852
TTAGGTATCGGTTCCGGTTAGTGCTAG | 10.3
TCAACTCTCTCCATGTGACTGTGCTAG | 0.577
TTAGGTATCGGTATCGGTTGGTGCTAG | 10.6

Sample 2
Target: RING finger protein unkempt homolog, zinc fingers 1-6, SBP tag (UNK, Homo sapiens, UniProt Q9C0B0, residues 30-357)
Chain of UniProt Q9C0B0 (30-357, looked up): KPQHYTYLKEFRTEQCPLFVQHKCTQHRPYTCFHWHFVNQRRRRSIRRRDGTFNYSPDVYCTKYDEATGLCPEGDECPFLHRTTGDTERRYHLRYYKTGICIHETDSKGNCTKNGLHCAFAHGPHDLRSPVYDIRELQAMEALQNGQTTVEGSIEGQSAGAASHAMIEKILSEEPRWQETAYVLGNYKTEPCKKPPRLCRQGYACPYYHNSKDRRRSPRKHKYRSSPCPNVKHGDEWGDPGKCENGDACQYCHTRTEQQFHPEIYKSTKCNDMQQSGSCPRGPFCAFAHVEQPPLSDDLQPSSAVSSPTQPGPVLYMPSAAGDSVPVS
Technique: RNA Bind-n-Seq
Form: RNA
Sample: in vitro
Tested at: 100 nM
Setting: RNA with constant flanks, vertebrate orthologous sites, ends assumed
Baseline: input RNA pool
Reading: higher = stronger binding
Constant ends, left off below: GGGAGUUCUACAGUCCGACGAUC … CAACAGAGGAUUGAGCAUCA
Strand | bound/input enrichment [ratio]
UACUUAUUUCUUUCUUCCUGACUUUCUUUUUUCUUUCGUUUCUUUUUUCUUUUUUUUUGGUAGUUGUUGUUACCCACGCCAUUUUACGUCUCCUUCACUGAAGGGCUAGAGUUUUAACUU | 2.14
AGUAUCUCAGUUGUACCGUGUUGGGUUGGCAUUGUACAGAAAUUAACAGCCAUAUUGGUCUAGAAACGUUAAACAUAAUUUUUUCCAUUUGUACAGGGGUAACGCACUGUAUUAAAUAUG | 1.3
AAUUUUUAAAAGUUUUUUAAUUUAAUUUUUCCUUUUGGGAGUAAAGUUUGCUCUACCAAAUAGUGAUUGUAACAAACUGAUCUGUUUUGGAUGUUGCUAUAGUGACAUGCAGUUAUAUAU | 0.321
AAAUCUACUUCAUGCCUUGGACUCCAUACCGAACAGACACUCUAAUCGAGUACUCCUCCUUGGAUGACUUUCAAAAUGCCCGUCAAACCAUCACCUACAAGCUGCCGCACCGGGUGGACG | 0.364
GGAAAGUUACAGACCAGACUCUGAAAGCAGGAGCACAGGAUCCUGGUUGUCAUCAUCUUUGAGGAACAGAUGUACGCCUCUCUUUUCCAGAAGAAGAAGAGAAGGAAGAGAUGAGUCUGC | 0.325
GAAGAUGGUGGUUGUACAUUAUUCAUUUAGAAAAUACAAAACUUCGUUUUGUUUUGAAGCUAGGUAUUAAUUGGAAUAGCUAUUAUACCUGAGAGUGGAGCAGCUGUGCCCUUCCUUUGA | 1.04
UGCAUUAUUUGACCAGAGUUGAGGUGACAGAAUUUGAAGACAUCAAAUCAGGUUACAGAAUAGAUUUUUAUUUUGAUGAGAAUCCAUACUUUGAAAAUAAAGUUCUCUCCAAAGAGUUUC | 0.677
UUUAAUCAAUGAGGUAUUUAAAUGUCCACUGAACAAAUAAGAGUCUAUUUAUAAAGAGAUUUAUUUAACUCCUGCAGUGCGAGAGCAGUCAGUGUGGCAUGUCGGAAACUCCCUAACCCA | 0.192

Sample 3
Target: RNA binding protein fox-1 homolog 2, RRM domain, GST-SBP tag (RBFOX2, Homo sapiens, UniProt O43251-10, residues 100-194)
Technique: RNA Bind-n-Seq
Form: RNA
Sample: in vitro
Tested at: 365 nM
Setting: natural RNA segment, single round, ends assumed
Baseline: no-protein control
Reading: higher = stronger binding
Constant ends, left off below: GGGAGUUCUACAGUCCGACGAUC … UGGAAUUCUCGGGUGCCAA
Target sequence (chain): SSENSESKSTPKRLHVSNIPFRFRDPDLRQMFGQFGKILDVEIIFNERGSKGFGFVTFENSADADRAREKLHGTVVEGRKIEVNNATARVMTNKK
Strand | RBNS enrichment (R)
GGAAGAUCCUCUUUCCAGGCCUCUCUAACCAAGUCUCAAAUAUCCAGGCAGAGUUUUAGUAUGACAUUGUGUGAUGAAUGCAAAUCAACACACAGAAUAAAUGGCUCUUU | 0.494
UGGUUUGAGAUGGCCACUUAUUGUCCUUAAAAAUCCAUACUGAUAUAUGCAGUCAUUUUGAAUUGGACAGUGCCUUCUCUUUUUUUUUCUCCUCUUCUUCCAUCUCCCUC | 0.406
UGCUCACACGGUUACCUAGGGUAGGCUGGGAGCCAUUGUGGGGUGCAGGGCCUGGCUUGUACUUGGUGUGUGCAAGGCCCAAUGGCAGCCUGCAUACCCAGCCUACUCUU | 0.317
GAAGAGUGGUUGGUUGUAGAGCCCCCACCUUCAGAACUGCCUGGCCCAGCUGGAAACCCAGAGUCUGAGGGGGAAUCAGGUUCUGGAAGGCAAGCCAGAACUCCAGAGCU | 0.506
UGGUUAAAAGAAAAGAACAAUAAGAUGCAUUCAAAGAAUAAUUGCUUUCAGCCUGCUGCCUAAAUCGGCAAAGGAACACAGCGGGAAAGAGAGAUCUGGGUCUUGGUAAU | 1.17
AGAGCCGUGGUCCUUUGGGGUGAACUACCUUGGUUCCCCCACUGAUCACAAAAACAUGGUGGGUCCAUGGGCAGAGCCCAAGGGAAUUCGGUGUGCACCAGGGUUGACCC | 0.229
GCAUUUUGUAACGUCCAGUGUGGCGUUGAAUAGAUGUGUAUUUCCUCCCCUGCAGAAAAUAAGCACAGAAAAUUAUAAUGUAGGUGAUCGGAGCUCUUUCCUUUGAUAGA | 0.439
GUAGGUGACUCUGCAGCCUGCCAGCGCCCGCCCUCUUUCUACACAGCAGAGUGUGCAUGGCAAGGAAAUGAGUCACCUCCUUGGGGGAUGGUGCUGUUUUUAUGAAAACC | 0.35

Sample 4
Target: Ras GTPase-activating protein-binding protein 1, full length (G3BP1, Homo sapiens, UniProt Q13283)
Chain of UniProt Q13283 (whole entry, looked up): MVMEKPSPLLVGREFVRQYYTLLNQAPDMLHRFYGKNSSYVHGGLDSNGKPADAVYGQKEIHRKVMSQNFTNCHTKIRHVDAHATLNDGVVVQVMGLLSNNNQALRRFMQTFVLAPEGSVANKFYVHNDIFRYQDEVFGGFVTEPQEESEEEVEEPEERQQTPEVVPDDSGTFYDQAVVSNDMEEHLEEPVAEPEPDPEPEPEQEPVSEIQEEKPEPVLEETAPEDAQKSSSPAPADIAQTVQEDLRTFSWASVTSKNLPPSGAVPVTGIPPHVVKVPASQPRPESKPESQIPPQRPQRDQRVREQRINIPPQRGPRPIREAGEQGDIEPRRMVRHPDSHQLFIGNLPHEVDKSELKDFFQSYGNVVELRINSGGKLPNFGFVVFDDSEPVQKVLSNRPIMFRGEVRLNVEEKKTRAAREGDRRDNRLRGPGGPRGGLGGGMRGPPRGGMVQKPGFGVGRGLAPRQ
Technique: RNA Bind-n-Seq
Form: RNA
Sample: in vitro
Tested at: 200 nM
Setting: whole 134-nt RNA, ends assumed
Together with: 150 mM LiCl
Baseline: input library
Reading: higher = stronger binding
Each molecule: 7-deaza-guanosine replaces G
Constant ends, left off below: GGGAGUUCUACAGUCCGACGAUC … UGGAAUUCUCGGGUGUCAAGG
Strand | log2 enrichment
CAAGUCCUGUGCUACACAUCGUAUGUACCGAAUCGGUUUUUUUGGAAAGGAAAGGAAAGUAUUAUGUUACGCCGUUCGGAUCUGCACUUC | -0.772
UGGGAGGUGGAUUUUGUUUAUUUGUUUAGCUCAUUUCCAGGGGUGGGAAUUUUUUUUUAAUAUGUGUCAUGAAUAAAGUUGUUUUUGAAA | -0.138
UGGGAGGUGGAUUUUGUUUAUUUUUUUAGCUCAUUUCCAGGGGUGGGUAUUUUUUUUUAAUAUGUGUCAUGAAUAAAGUUGUUUUUGAAA | 0.168
UCAAGUCCUGUGCUACACAUCGUAUGUACCGAAUCGGAAAGGAGGUUUUUUUGGAAAGUAUUAUGUUACGCCGUUCGGAUCUGCACUUCC | -0.124
CAAGUCCUGUGCUACACAUCGUAUGUACCGAAUCGGGAAAAAGGGAGGGUUUGGGAAAGUAUUAUGUUACGCCGUUCGGAUCUGCACUUC | -0.762
CCUGUGCUACACAUCGUAUGUACCGAAUCGGGGUUUUUUGGGGUUUUUUGGUUUUUUGGGAAAGUAUUAUGUUACGCCGUUCGGAUCUGC | 0.578
CAAGUCCUGUGCUACACAUCGUAUGUACCGAAUCGGGUUUUUUUGGGUGGGUGGGAAAGUAUUAUGUUACGCCGUUCGGAUCUGCACUUC | 0.254
UGUGCUACACAUCGUAUGUACCGAAUCGGGGCCCCCCCGGGGCCCCCCCGGGCCCCCCCGGGGAAAGUAUUAUGUUACGCCGUUCGGAUC | -0.663

Excerpt of the above (sample 2):
Strand | bound/input enrichment [ratio]
AAUUUUUAAAAGUUUUUUAAUUUAAUUUUUCCUUUUGGGAGUAAAGUUUGCUCUACCAAAUAGUGAUUGUAACAAACUGAUCUGUUUUGGAUGUUGCUAUAGUGACAUGCAGUUAUAUAU | 0.321
AAAUCUACUUCAUGCCUUGGACUCCAUACCGAACAGACACUCUAAUCGAGUACUCCUCCUUGGAUGACUUUCAAAAUGCCCGUCAAACCAUCACCUACAAGCUGCCGCACCGGGUGGACG | 0.364
GGAAAGUUACAGACCAGACUCUGAAAGCAGGAGCACAGGAUCCUGGUUGUCAUCAUCUUUGAGGAACAGAUGUACGCCUCUCUUUUCCAGAAGAAGAAGAGAAGGAAGAGAUGAGUCUGC | 0.325
GAAGAUGGUGGUUGUACAUUAUUCAUUUAGAAAAUACAAAACUUCGUUUUGUUUUGAAGCUAGGUAUUAAUUGGAAUAGCUAUUAUACCUGAGAGUGGAGCAGCUGUGCCCUUCCUUUGA | 1.04
UGCAUUAUUUGACCAGAGUUGAGGUGACAGAAUUUGAAGACAUCAAAUCAGGUUACAGAAUAGAUUUUUAUUUUGAUGAGAAUCCAUACUUUGAAAAUAAAGUUCUCUCCAAAGAGUUUC | 0.677
UUUAAUCAAUGAGGUAUUUAAAUGUCCACUGAACAAAUAAGAGUCUAUUUAUAAAGAGAUUUAUUUAACUCCUGCAGUGCGAGAGCAGUCAGUGUGGCAUGUCGGAAACUCCCUAACCCA | 0.192
